Assay results pooled from the literature.
Every numbered part comes from another study and shows a few of its results, in no order.

Block 1
Target: Interferon regulatory factor 5, full length, phosphomimetic (IRF5, Homo sapiens, UniProt Q13568-2, residues 1-514, K96S/S451D/S453D/S456D/S462D)
Technique: protein-binding microarray
Form: double-stranded DNA, one strand shown
Medium: in vitro
Concentration: 250 nM
Notes: 60-bp whole probe
Added: salmon DNA 0.4 mg/ml
Baseline: random background probes
Direction: higher = stronger binding
Constant ends, left off below: GCCTAGCAC … GTCTTGATTCGCTTGACGCTGCTG
Sequence | log fluorescence [z-score]
TGAGGTATCGGTCTCGGTTAGTGCTAG | 4.53
TTAGGACAGCTACTGCTTTAGTGCTAG | -0.165
TACGGTATCGGGACTGGGGACGTGCTA | 1.02
TTAGGACTGCTACTGCTTAAGTGCTAG | -0.398
GAGGGACTGGGGTTTCGGGACGTGCTA | 1.06
GACGGTTTCCACACTGGGGACGTGCTA | 0.131
CCCAATCTCTCTTCACATATGTGCTAG | 0.38
TTAGGACTGGGTATCTGTTAGTGCTAG | 0.127
TTAGGTATCCTTATCATTTAGTGCTAG | 0.638
GACGGTATCGACTATCGGGGCGTGCTA | 3.18
GATGGTTTCCTACTGCTGACGTGCTAG | 0.477
TCAAATCTTTTTCCCTAACTGTGCTAG | 1.03
TCAAGTTTCTCCTTTCCACTGTGCTAG | 2.38
GACGGTATCGGTTTCAGGACGTGCTAG | 7.29
CACGGTTTCGACACTGGGGACGTGCTA | 4.14
TCATTTTTTTCTATATGACTGTGCTAG | 2.11
GATGATTTCGGGTATCGAGACGTGCTA | 5.72
TTAGATATCAGACTGGATCAGTGCTAG | 0.321
CACCACATTTTTTTCATTATGTGCTAG | 1.45
TGCTTTTTAGAAATTTTTTTTGTGCTA | 0.976
CTTTAACTCATTCTCCACTTGTGCTAG | 0.366
CATGCTCTTATATACCTGTATGTGCTA | 0.409
TCAGGACTCAGGTCTCCCACTGTGCTA | -0.293
TCATTTTTTTTTTCATCACTGTGCTAG | 1.61
GACGGTATCGACACTGGGGCCGTGCTA | 1.36

Block 2
Target: RNA binding protein fox-1 homolog 2, RRM domain, GST-SBP tag (RBFOX2, Homo sapiens, UniProt O43251-10, residues 100-194)
Technique: RNA Bind-n-Seq
Form: RNA
Medium: in vitro
Concentration: 365 nM
Notes: natural RNA segment, single round, ends assumed
Baseline: no-protein control
Direction: higher = stronger binding
Construct (chain): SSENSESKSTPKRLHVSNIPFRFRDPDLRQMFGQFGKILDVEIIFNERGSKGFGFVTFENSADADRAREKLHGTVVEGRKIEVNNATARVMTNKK
Sequence | RBNS enrichment (R)
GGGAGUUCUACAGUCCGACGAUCAAGUUACCAACUUAUGUAGGGGUGAAAUUUGGAUAGGCGGUAUGCUCAAAGCAGCCAGCAAUGAGUGCUCUGUUUUGAUCCUUCUUCUUAUUAUGGAAAGGAGUACAGGAUGGAAUUCUCGGGUGCCAA | 0.308
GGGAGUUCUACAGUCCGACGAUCUAGUGUGAGAUUUUUUAUUUCUAAAUUUUGUUGUAUCUUCUAUUACAUAAAUGCAUUGACAAUUAUAAAAUGCAAGUGUUUUUUGAAUGAUUUUAAGAAUUUGGCUUAAAUGGAAUUCUCGGGUGCCAA | 0.643
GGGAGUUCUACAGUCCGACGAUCUCAUCCUCUGGUAGGGCUGCCAGAAGGCCCCCAGCUCCUACCCACUCCCCUUGAGGCUGCUGCCUGCUUGGCCAGCCUCUGUCCAGAAAGGACCAGAGAAAGCCAGGCUGUGGAAUUCUCGGGUGCCAA | 0.536
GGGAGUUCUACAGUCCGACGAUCCAUUUUAAUUACUUGCAAAUUAAGUUACCACAGACUCUGUAGUGUGUAAAUGUUGACAAGGAAUUGGAUCACAAUCAUGUAGCAGAAUGGCACCCAGACCACUGCCCACCUGGAAUUCUCGGGUGCCAA | 0.411
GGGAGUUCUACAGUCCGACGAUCGCAGGUAGAUUAGAGCUGUGAAAUCCAUGUACAUUAAUACCCAAUGGGAUAAACUUAGAUUUUUUUUUUACUCUGAACUCUGAAUUGUUUGUGCACAUAUUUCUGCUACCUGGAAUUCUCGGGUGCCAA | 0.874
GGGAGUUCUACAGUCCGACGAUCUGAUGUUUUUGAAGCAUCCUAAGUACAGUAGAGUAGAAAACUGAUUUCUUUGUUAAUUGUACACUGAAUAAUGCCUUUUAAAAAUCAAAAUAAAAUUAACAAAUAAUGGUUGGAAUUCUCGGGUGCCAA | 0.404
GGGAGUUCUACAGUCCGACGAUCGCAUCCUGAUUUUUCUGUAGGAACUUUUCUUUGGCAGACCAAGUGAAGACUCAGGAAUGGUGUGCAUUAUAAAUGACACACAUUGCCACUUGUGUAGAUAUUUUUAAGUUUGGAAUUCUCGGGUGCCAA | 1.12
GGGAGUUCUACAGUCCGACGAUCUAUUUCUCUGCAUCUUCUCUUGGAGUGAGGGAGGCUACCUGGAGGGGAUCAGCCCACUGACAGACCUUAAUCUUAAUUACUGCUGUGGCUAGAGAGUUUGAGGAUUGCUUUGGAAUUCUCGGGUGCCAA | 0.659
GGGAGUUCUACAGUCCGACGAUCGUAGAGGGAGAGCCAUGUACUUGGGAGUAGGCUGAAGUACCUAACAGUGUAGGGUAAAGAACAGAAUUGGAACAGAACUAAGGCUGUUGCUUUCAUAGCAUCUCAGACUAUGGAAUUCUCGGGUGCCAA | 0.514
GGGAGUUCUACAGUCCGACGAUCAUCUGCCAAGAGAGAUGUAUGUGUCACUGCAUGGCUUCUGAAAGCAGGAUGAAUUUUCUGCAGCUGUUUCAAAGUUGGGGUCUGUUCUUGAAUCCUCUAUUAAUUACUGUUGGAAUUCUCGGGUGCCAA | 0.874
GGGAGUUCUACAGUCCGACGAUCAUUCAGUCUGUGUAACAUUUUCUUCUGUGUUUUUUACCAGCCAGCUCAAAAGUUAAGAGCAAAUUAUGGAAGAAUAAUUUGAUGUCUUUGAGAAACCAUGAGGUUUCUUUUGGAAUUCUCGGGUGCCAA | 2.75
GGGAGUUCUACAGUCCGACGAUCUUUUUGUUUUUAAAUGAAGACCUCUGAAAAGCACAGGGCCUCUGCUCCUUCUGGCUCUGAUGUCCUGUGACUGUAGUGUCACCACCUCCCCUGGGAGUCAGACCAGGGACUGGAAUUCUCGGGUGCCAA | 0.241

Block 3
Target: Histone acetyltransferase KAT6A, winged helix 2, GST fusion (KAT6A, Homo sapiens, UniProt Q92794, residues 85-181)
Technique: protein binding microarray
Form: double-stranded DNA, one strand shown
Medium: in vitro
Concentration: not given
Notes: 8-mer, flanks averaged, mean of 2 arrays, mostly near background
Baseline: not given
Direction: higher = stronger binding
Construct (chain): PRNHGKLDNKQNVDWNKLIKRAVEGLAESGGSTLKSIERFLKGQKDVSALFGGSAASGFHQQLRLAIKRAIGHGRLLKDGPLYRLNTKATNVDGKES
Sequence | E-score
CGGCGAAG | 0.104
GGTCACAA | 0.105
CCAGCGCG | 0.217
AGGTTGTG | -0.0358
TATAGAAA | 0.0025
AGCGCTTG | 0.106
GACCTGCA | -0.00434
CGCATACA | 0.0487
TGATTTAA | -0.000825
ACCGGACA | -0.0636
CGTCGCGA | 0.183
GAGCCCTC | 0.00843
CATAACAA | 0.117
CACGTTTA | -0.111
CCTGTGAC | -0.0461
ACGGTTTA | -0.0829
AGAGTAAC | 0.0182
GGATACAA | -0.0234
CAGAGAGG | -0.0378
CCATAGTC | -0.0637
CATTATTC | 0.00831
CGGACGCA | 0.177
ACGCGCAG | 0.119
GAATATAA | -0.0698
AGCCCATG | -0.122

Block 4
Target: RING finger protein unkempt homolog, zinc fingers 1-6, SBP tag (UNK, Homo sapiens, UniProt Q9C0B0, residues 30-357)
Chain of UniProt Q9C0B0 (30-357, looked up): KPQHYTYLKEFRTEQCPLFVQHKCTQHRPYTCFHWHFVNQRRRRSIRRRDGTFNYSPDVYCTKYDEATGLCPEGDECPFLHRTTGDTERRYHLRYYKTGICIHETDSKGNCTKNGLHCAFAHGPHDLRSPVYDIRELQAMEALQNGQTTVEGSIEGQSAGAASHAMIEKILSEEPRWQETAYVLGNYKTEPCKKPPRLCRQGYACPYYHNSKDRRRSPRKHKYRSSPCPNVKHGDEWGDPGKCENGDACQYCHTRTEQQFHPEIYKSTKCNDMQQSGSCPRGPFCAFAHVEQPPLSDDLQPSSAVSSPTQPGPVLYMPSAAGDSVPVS
Technique: RNA Bind-n-Seq
Form: RNA
Medium: in vitro
Concentration: 100 nM
Notes: RNA with constant flanks, vertebrate orthologous sites, ends assumed
Baseline: input RNA pool
Direction: higher = stronger binding
Sequence | bound/input enrichment [ratio]
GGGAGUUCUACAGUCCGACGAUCUAUUUAAAAUACACUUAAUUGUAUUUAAUGACCUCAUUCCUAGUUCCUUGUUCAUUAAAGUAGCUCAUUUCCAUUAAUGCCAUUUUUAACAGUAUGAACAAAUUGAAGGUUUGUGCAGUACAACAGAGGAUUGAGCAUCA | 0.493
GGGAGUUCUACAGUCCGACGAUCCCAUUCUUACUGUCCCUGGCCAGGGCCGAGGACCUCAGCUGUUUCACUGAGGACCUGCAUCUAAAACAUAUUUUUAAAUUGUUACACAGGAAGAGAUGUGACUAAAGCACCAUCUCAAAGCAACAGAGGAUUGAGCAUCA | 0.416
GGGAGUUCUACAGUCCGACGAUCUAUAAGAACUCUUGCAGCCUUAGAUGUUAUACAAAAUAAGUAUCUGAUUGUAAGAGGUGUUAGCACAGGUUUUUUUCUUUUCUUUUCUUUUUUUUUUUUAACACUUGUUUUGGGUACAAACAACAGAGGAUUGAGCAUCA | 1.46
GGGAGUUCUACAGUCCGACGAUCCUUUAUGGGCCUCGCAGAGUUGAAAUACUGGAAGAGGAAAGUGAACAGUAAUCUUCAUUCUAGUAUUUAUGCUUAGGUGUGAAAUAAAUGUUACUUGUUGAUAAUUUCUAUAAUCCAGAGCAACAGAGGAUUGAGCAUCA | 0.339
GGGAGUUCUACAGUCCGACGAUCAUCAGUAGAAUUACAUAAUACUAAAGUUGCAGUUGAAAGGAUAUUCAAGUUAUGUGUUGGUAGUUACUAAAAGAAAUAGCUGUUAUUGCCUUGUAUUUAUAGCCCUUGUUUCAGGUUUCACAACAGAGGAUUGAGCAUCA | 0.763
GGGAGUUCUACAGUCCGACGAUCGUGGGAAAUAUUCUGGGGAGUCGCUGGACACUUAGCAUUGUUUGGUUUAUGAUUCUGACAAUAGAUAGGCUUGUGGGAUUUUUGUUUCUGUUUUUUUUUUUAAUUUAAUGAUAUUAAAACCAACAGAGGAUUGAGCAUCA | 1.53
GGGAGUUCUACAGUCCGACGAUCGCGUAUGCCGCUGUCACCAAAAUCAGACUACCGUAUUUCAAAUUUCAUUCAGAGUCAUUGUAGUGUUUCCUAUUCCCUACCCUUCCCACUACUUUCAAUGAUGAUGUAUCCUAAGUUCUUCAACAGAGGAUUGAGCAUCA | 0.771
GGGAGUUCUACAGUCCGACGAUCCUCUCUCCUAGGUUGGAGCUAGUGGGAAAGUCAUAGGAAUUGAUCACAUUAAGGAGUUAGUAGAUGACUCAAUAAAUAACGUCAGAAAGGACGACCCAGUACUUCUGUCUUCAGGGAGAGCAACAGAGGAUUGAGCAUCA | 0.36
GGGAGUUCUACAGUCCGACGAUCAAUAAUGAAUAGUAUUAAAGAAACAUUCUUGUCUUCCUUUACCUUUAAUCCCCUAAUACCUAGUCUACUUUUUAAAUUUUCAGACUUCACUGCUUUUUGAAUUCAUAAUUCUAAUUUUCACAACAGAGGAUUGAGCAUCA | 2.59
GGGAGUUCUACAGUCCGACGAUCAUGUUGUGUCAAAUAUGUCUGCCCAGAUUAGUAUCACCCUAUAAAUAUUAUCAAGAAAUUUACCUAGAGUCUUCUUAGGUAUUGAAUUAUAUAUCCAGCAUUUAAAGUGAAUUUGAGAUGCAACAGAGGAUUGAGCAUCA | 0.637
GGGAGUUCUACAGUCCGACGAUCAGCUUCUGGCGACAUUUGGCCUGGCCUUUCAGCAUAUGAUAACAGUCCAAGGUCACCCCAUAGUCCUUCAAUUGCCACCCCACCUAGUCAGAGUUCAUCUUGCUCUGAUGCCCCUUUGCUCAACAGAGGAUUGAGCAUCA | 0.747

A few entries again (block 3):
Sequence | E-score
CATAACAA | 0.117
CACGTTTA | -0.111
CCTGTGAC | -0.0461
ACGGTTTA | -0.0829
AGAGTAAC | 0.0182
GGATACAA | -0.0234
CAGAGAGG | -0.0378
CCATAGTC | -0.0637
CATTATTC | 0.00831
